Measurements from different studies.
A part holds a random share of what one study measured. “And” joins repeats or separate records; there may be more than shown.

Block 1
Target: Interferon regulatory factor 7, full length, phosphomimetic (IRF7, Homo sapiens, UniProt Q92985, residues 1-503, S471D/S472D/S475D/S476D/S477D/S483D/S484D/S487D)
Method: protein-binding microarray
Form: double-stranded DNA, one strand shown
Medium: in vitro
Tested at: 2200 nM top
Notes: 60-bp whole probe
With: salmon DNA 0.4 mg/ml
Reference: random background probes
Direction: higher = stronger binding
Shared flanks, not repeated: GCCTAGCAC … GTCTTGATTCGCTTGACGCTGCTG
Construct (chain): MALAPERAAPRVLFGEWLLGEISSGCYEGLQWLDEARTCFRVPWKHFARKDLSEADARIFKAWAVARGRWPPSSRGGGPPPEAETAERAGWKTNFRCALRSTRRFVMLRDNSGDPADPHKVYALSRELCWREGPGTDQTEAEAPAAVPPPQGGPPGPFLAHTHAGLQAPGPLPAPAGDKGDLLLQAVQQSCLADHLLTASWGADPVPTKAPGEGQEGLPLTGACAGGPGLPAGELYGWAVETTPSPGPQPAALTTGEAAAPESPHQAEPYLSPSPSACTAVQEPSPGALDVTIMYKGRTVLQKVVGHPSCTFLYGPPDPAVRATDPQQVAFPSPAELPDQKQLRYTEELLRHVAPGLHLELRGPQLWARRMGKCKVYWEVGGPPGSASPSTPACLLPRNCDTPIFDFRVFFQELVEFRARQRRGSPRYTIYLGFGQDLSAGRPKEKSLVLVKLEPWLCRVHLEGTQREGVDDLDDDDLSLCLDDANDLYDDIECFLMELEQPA
Oligonucleotide | fitted relative affinity
CATTTATTTACTCTCTACATGTGCTAG | 1.85 z-score
TTAGTTTTCGACTATCGGTTAGTGCTA | 4.08 z-score
CTGGCTTTGACTCTTTCTGTGTGCTAG | 0.693 z-score
TAGGTTTTCTGGTTCCCATTGTGCTAG | 4.44 z-score
AACGGACTGGGTTTCGGGACGTGCTAG | 1.18 z-score
TTAGGTTTCCTTTCCATTTAGTGCTAG | 4.44 z-score
TTAGATATCAGTCGCGATTAGTGCTAG | 0.0154 z-score
TTACATTCCAGTTTCGATTAGTGCTAG | 8 z-score

Block 2
Target: Replicase polyprotein 1ab, nsp13 helicase (rep, Severe acute respiratory syndrome coronavirus 2, UniProt P0DTD1)
Action: inhibitor
Tested at: 20 µM
Compound | inhibition [%]
CCC(=N\O)/C(C)=C/c1ccc(F)cc1 | 7.92
CCCCCCCCCCCCCCOc1ccc(C(=O)O)o1 | -5.25
Cc1c(F)cc(C(=O)NC2CC2)cc1-c1ccc(C(=O)NCC(C)(C)C)cn1 | 8.58
C[C@H]1NC(=O)NC1=O | -2
C[C@@H](Nc1cc(F)cc(F)c1)c1cc(C(=O)N(C)C)cc2c(=O)cc(N3CCOCC3)oc12 | 3.07
Cc1n[nH]c(C)c1Cc1sc2c(c1C(=O)N1C[C@H](O)CO1)c(=O)n(C)c(=O)n2CC(C)C | -2.31
Cc1ncc[nH]1 | 2.25
O=C(O)c1ccccc1S | 7.51
N[C@@H]1CCCCN(c2c(F)cc3c(=O)c(C(=O)O)cn(C4CC4)c3c2Cl)C1 | 9.77
N#Cc1ccc2[nH]c(O)c(-c3ccc(CN4CCOCC4)cn3)c2c1 | 4.16
Cc1cc(=O)[nH]c(=S)[nH]1 | 3.88
Cc1cc(N2CCOCC2)ccc1Nc1nc(NC2CCCCC2)c2[nH]cnc2n1 | -0.38
OC[C@H]1O[C@@H](Oc2cc3c(O)cc(O)cc3[o+]c2-c2ccc(O)c(O)c2)[C@H](O)[C@@H](O)[C@@H]1O | 14.9
COc1cc2nc(N3CCN(C(=O)C4COc5ccccc5O4)CC3)nc(N)c2cc1OC (stereo not shown) | 4.01
Nc1nc2c(c(N3CCNCC3)n1)CCC1=C2[C@H]2CCCC[C@H]2O1 | -2.76

Block 3
Target: Protein C-ets-1 (ETS1, Homo sapiens, UniProt P14921, residues 1-441, full length assumed)
Method: protein-binding microarray
Form: double-stranded DNA, one strand shown
Medium: in vitro
Tested at: not given
Notes: k-mer, scored over probes, only values ≥0.25
Direction: higher = stronger binding
Target sequence (chain): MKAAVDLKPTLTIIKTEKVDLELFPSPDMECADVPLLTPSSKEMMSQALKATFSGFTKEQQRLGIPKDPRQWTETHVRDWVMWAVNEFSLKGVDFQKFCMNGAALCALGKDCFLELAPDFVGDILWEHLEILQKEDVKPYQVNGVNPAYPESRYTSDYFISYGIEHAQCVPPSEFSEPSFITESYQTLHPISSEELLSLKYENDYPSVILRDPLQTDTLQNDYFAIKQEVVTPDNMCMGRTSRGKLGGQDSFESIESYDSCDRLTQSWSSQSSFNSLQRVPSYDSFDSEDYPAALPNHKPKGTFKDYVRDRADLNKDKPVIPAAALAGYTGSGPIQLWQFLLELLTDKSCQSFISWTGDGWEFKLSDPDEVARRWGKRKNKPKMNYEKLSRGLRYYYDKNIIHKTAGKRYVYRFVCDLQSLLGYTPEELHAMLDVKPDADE
Oligonucleotide | E-score
GAGAGGAA | 0.326
AGCGGACG | 0.399
ACGTCCGA | 0.252
CTTCCACC | 0.278
TGGCGGAA | 0.448
CATCCCGG | 0.374
CCCCGGTA | 0.256
ATAGGATA | 0.321

Block 4
Target: Replicase polyprotein 1ab, main protease (rep, Severe acute respiratory syndrome coronavirus 2, UniProt P0DTD1)
Observed: enzyme activity
Action: inhibitor
Tested at: 20 µM
Notes: hit confirmation, with DTT
Structure (SMILES) | inhibition
COc1nc2ccc(Br)cc2cc1[C@@H](c1ccccc1)[C@@](O)(CCN(C)C)c1cccc2ccccc12 | -11.1% and -19.8%
Cc1ccc(S(=O)(=O)N[C@@H](Cc2ccccc2)C(=O)CCl)cc1 | 99.2%
CCC[C@H](NC(=O)[C@@H]1[C@H]2CCC[C@H]2CN1C(=O)[C@@H](NC(=O)[C@@H](NC(=O)c1cnccn1)C1CCCCC1)C(C)(C)C)C(=O)C(=O)NC1CC1 | 36.1%

Block 5
Cell line: HEK-293T
Observed: pseudovirus infection
Method: FDA-approved drug library screen
Organism: VSV pseudotyped with SARS-CoV-2 spike
Tested at: 10 µM
Time: 16 h
Reference: vehicle-treated
SMILES | GFP-positive cells [%]
CC(=O)OCC(=O)[C@@]12OC3(CCCC3)O[C@@H]1C[C@H]1[C@@H]3CCC4=CC(=O)C=C[C@]4(C)[C@@]3(F)[C@@H](O)C[C@@]12C | 96.9
C#C[C@]1(OC(C)=O)CC[C@H]2[C@@H]3CCC4=C[C@@H](OC(C)=O)CC[C@@H]4[C@H]3CC[C@@]21C | 74.4
COC(=O)/C=C/C(=O)OC | 108

Some of these lines once more (block 2):
Compound | inhibition [%]
N[C@@H]1CCCCN(c2c(F)cc3c(=O)c(C(=O)O)cn(C4CC4)c3c2Cl)C1 | 9.77
N#Cc1ccc2[nH]c(O)c(-c3ccc(CN4CCOCC4)cn3)c2c1 | 4.16
Cc1cc(=O)[nH]c(=S)[nH]1 | 3.88
